Measurements gathered from unrelated publications.
Each numbered part is a random draw from the data of one study; scales do not carry over between parts.

Set 1 — cell line: HEK-293T/ACE2; effect on: pseudovirus infection; organism: VSV pseudotyped with SARS-CoV-2 spike; tested at: 10 µM; time: 16 h; relative to: vehicle-treated; endpoint: GFP-positive cells
CCC(=O)O[C@]1(C(=O)CCl)[C@@H](C)C[C@H]2[C@@H]3CCC4=CC(=O)C=C[C@]4(C)[C@@]3(F)[C@@H](O)C[C@@]21C: 84.6%
CC(=O)N(O)CCCCCNC(=O)CCC(=O)N(O)CCCCCNC(=O)CCC(=O)N(O)CCCCCN: 62.1%
CN(CCOc1ccc(CC2SC(=O)NC2=O)cc1)c1ccccn1 (centres unmarked): 74.2%
CCn1cc(C(=O)O)c(=O)c2cc(F)c(N3CCNC(C)C3)c(F)c21 (centres unmarked): 78%

Set 2 — effect on: enzyme activity; tested at: 20 µM; setting: with DTT; endpoint: inhibition
Target: Replicase polyprotein 1ab, main protease (rep, Severe acute respiratory syndrome coronavirus 2, UniProt P0DTD1)
COc1ccc([N+](=O)[O-])c(S(=O)(=O)c2ccc(Cl)cc2)n1: -13.1%
Cc1ccc(-n2sc3ccccc3c2=O)cc1: 99.4%
O=c1c2ccccc2sn1-c1ccccc1: 98.2%

Set 3 — effect on: enzyme activity; mode: inhibitor; tested at: 20 µM; endpoint: inhibition
Target: Replicase polyprotein 1ab, polymerase (rep, Severe acute respiratory syndrome coronavirus 2, UniProt P0DTD1)
Oc1c(CN2CCCC2)cc(COCc2ccccc2)c2cccnc12: -0.3%
COC(=O)C1=C(C)NC(C)=C(C(=O)O[C@H]2CCN(Cc3ccccc3)C2)[C@H]1c1cccc([N+](=O)[O-])c1: 0.86%
CC(C)(C)c1ccc(/C=C/C(=O)Nc2ccc3c(c2)OCCO3)cc1: -1.6%
CC(=O)NCCCCCC(=O)O: 4.79%
COc1cc(C(=O)c2c(C)oc3c(O)c(OC)ccc23)cc(OC)c1OC: -3.98%
CN(C)CCC(c1ccccc1)c1ccccn1 (centres unmarked): 17.8%
CC(CNC1CCCCC1)OC(=O)c1ccccc1 (centres unmarked): 3.65%
O=C(O)c1c(Sc2ccccc2)c2cc(Cl)ccc2n1Cc1ccc(Cl)cc1: 85.7%
OCCN1CCN(CCCN2c3ccccc3Sc3ccc(Cl)cc32)CC1: 0.47%
Cc1sc2c(c1C)C(c1ccc(Cl)cc1)=N[C@@H](CC(N)=O)c1nnc(C)n1-2: 0.91%
CCCCC1(COC(=O)CCC(=O)O)C(=O)N(c2ccccc2)N(c2ccccc2)C1=O: 0.47%
Cc1ccc(O)c([C@H](CCN(C(C)C)C(C)C)c2ccccc2)c1: -2.68%
COCCOC(=O)C1=C(C)NC(C)=C(C(=O)OC(C)C)C1c1cccc([N+](=O)[O-])c1 (centres unmarked): -2.77%
Clc1ccc(N2CCN(Cc3c[nH]c4ncccc34)CC2)cc1: -2.18%
C[C@]12CC[C@@H]3c4ccc(O)cc4CC[C@H]3[C@@H]1[C@@H](O)[C@@H](O)[C@@H]2O: -11.8%
N=C(NCc1ccc(Cl)cc1)SCCCc1c[nH]cn1: -9.78%
NCCC[C@H](N)CC(=O)N[C@H]1CNC(=O)[C@H]([C@H]2C[C@H](O)NC(N)=N2)NC(=O)/C(=C/NC(N)=O)NC(=O)[C@H](CO)NC(=O)[C@H](CO)NC1=O: -3.29%
c1cc2c(c(N3CCNCC3)c1)OCCO2: -6.77%
NC(=O)c1cccnc1: 2.46%
[NH-]c1c[n+](N2CCOCC2)no1: 0.09%
O=c1cc(N2CCNCC2)oc2c(-c3ccccc3)cccc12: 4.46%
CCOc1ccc(S(=O)(=O)O)c2cccnc12: -3.1%
COC(=O)N1CC[C@@H]2[C@H]1CCC[C@@]2(O)C#Cc1cccc(C)c1: -1.82%
N#CCNC(=O)c1ccc(-c2ccnc(Nc3ccc(N4CCOCC4)cc3)n2)cc1: 3.54%
Cn1cc(C2=C(c3cn(CCCSC(=N)N)c4ccccc34)C(=O)NC2=O)c2ccccc21: 8.98%

Set 4 — technique: universal PBM; molecule type: double-stranded DNA, one strand shown; matrix: in vitro; tested at: 600 nM; reading: higher = stronger binding; endpoint: E-score
Target: Sal-like protein 4, full length isoform A (SALL4, Homo sapiens, UniProt Q9UJQ4, residues 1-1053)
Sequence of UniProt Q9UJQ4 (whole entry, looked up): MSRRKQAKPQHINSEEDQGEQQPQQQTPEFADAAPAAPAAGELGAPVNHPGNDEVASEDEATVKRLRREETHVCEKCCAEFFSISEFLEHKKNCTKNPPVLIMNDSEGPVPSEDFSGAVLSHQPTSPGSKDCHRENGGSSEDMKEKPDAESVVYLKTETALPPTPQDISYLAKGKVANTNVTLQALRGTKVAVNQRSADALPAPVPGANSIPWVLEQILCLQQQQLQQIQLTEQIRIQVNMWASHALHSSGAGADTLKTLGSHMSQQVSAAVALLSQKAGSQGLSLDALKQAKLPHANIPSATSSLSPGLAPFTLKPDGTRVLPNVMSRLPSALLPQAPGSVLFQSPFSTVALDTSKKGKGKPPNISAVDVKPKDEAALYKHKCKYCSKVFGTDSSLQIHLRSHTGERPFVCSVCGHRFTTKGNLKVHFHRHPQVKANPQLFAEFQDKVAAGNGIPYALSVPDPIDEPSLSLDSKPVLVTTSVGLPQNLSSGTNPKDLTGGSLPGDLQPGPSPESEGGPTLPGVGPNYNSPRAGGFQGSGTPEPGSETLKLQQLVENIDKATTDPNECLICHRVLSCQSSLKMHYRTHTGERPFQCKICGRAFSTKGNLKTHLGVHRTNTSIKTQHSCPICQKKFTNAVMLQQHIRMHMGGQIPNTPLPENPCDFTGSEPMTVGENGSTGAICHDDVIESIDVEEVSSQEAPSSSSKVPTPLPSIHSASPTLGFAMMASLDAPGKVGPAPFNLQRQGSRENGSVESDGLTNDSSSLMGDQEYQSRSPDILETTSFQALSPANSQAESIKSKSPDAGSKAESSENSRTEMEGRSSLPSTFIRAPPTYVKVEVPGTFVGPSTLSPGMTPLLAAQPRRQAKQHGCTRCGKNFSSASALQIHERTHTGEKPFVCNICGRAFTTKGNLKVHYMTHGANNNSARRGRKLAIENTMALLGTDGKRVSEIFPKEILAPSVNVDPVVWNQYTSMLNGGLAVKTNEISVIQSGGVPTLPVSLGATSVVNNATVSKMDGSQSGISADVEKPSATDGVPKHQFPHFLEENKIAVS
Setting: 8-mer, flanks averaged, mean of replicates
GAAGATGA: 0.179
AGAAGCCC: -0.172
GGCTGCCA: -0.25
CACAGTGC: -0.295
CAACCTCG: -0.112
ACTCTAGA: 0.0599
CTATCGTC: -0.044
ACATCCAC: 0.0403

Set 5 — technique: RNA Bind-n-Seq; molecule type: RNA; matrix: in vitro; tested at: not given; relative to: input RNA pool; reading: higher = stronger binding; endpoint: bound/input enrichment
Target: RING finger protein unkempt homolog, zinc fingers 1-6, GST-SBP tag (UNK, Homo sapiens, UniProt Q9C0B0, residues 30-357)
Setting: RNA with constant flanks, human and mouse sites, ends assumed
Shared flanks, not repeated: GGGAGUUCUACAGUCCGACGAUC … CAACAGAGGAUUGAGCAUCA
Target sequence (chain): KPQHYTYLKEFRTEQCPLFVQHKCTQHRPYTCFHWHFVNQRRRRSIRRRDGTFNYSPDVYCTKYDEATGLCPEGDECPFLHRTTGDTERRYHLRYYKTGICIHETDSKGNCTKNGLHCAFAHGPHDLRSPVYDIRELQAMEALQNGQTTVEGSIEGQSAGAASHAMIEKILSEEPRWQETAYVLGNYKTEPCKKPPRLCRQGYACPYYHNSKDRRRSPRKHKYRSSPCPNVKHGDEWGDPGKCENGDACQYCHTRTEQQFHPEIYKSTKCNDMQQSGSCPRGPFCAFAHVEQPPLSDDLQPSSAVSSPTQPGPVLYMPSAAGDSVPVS
AGAACUCAUGGAAAUAGAAGUGAGUGAAAAUGUGAUACAAGUUCACUUAAAUGGACUCCUGCAGACAAAUGAAAAAAUUGCUCUGAAAGAGAUCACAAGACAAUUAAAUCUAGACAAUGU: 0.419 ratio
AAGCAUGAACGCAUUGAAAACGAUGUUGCCACCAUCCUGUCUCGCCGUAUUGCUGUUGAAUAUAGUGAUUCGGAAGAUGAUUCAGAAUUUGAUGAAGUAGAUUGGUUGGAGUAAGAAAAA: 0.249 ratio
AAAAUAGUCCGAUGCCAUGAACAUAUAGAAAUCCUUACAGUAAAUGGAGAAUUACUCUUUUUUAGACAAAGAGAAGGGCCUUUUUAUCCAACCCUAAGAUUACUUCACAAAUAUCCUUUU: 0.731 ratio
CAAGGAAUGUUUCGGCAGGGAAGCUGGCCCGAGGCUGCGGGUGGCAUCUGAAGGCACUGGUAGGUGUGGAAGAGGCCCCACAGAUGCCAGACUGCACCAAGAAUUAGUAUCUUUCACAGC: 0.942 ratio
CCGCCCUGGUCUCAGGCGCCAGUGGAAAUGUGUCCAGCGACGUUGCCUACGGGGUAAACAUGCCCGCCGCAAGGGAGGCUGUGACUCCAAGAUGGCUGCCAGGCGGCGCCCCGGAGCCCA: 0.1 ratio
GCUGAACCUGAUAUUAUUGAACAACUGGUGGAAUUUGCUUAUACUGCUAGAAUUUCUGUGAAUAGCAACAAUGUUCAGUCUUUGUUAGAUGCAGCAAAUCAGUACCAGAUUGAACCUGUG: 0.332 ratio
GAGGGGGUGGAGUUAAUGGAGCCACUGCUGGAACCUGGGCAGGAGCUCGGGGAGACAGCCCUUCAUCUUGCCGUCAGGACCGCAGACCAGACAUCUCUCCAUCUGGUUGAUUUCCUUGUA: 0.087 ratio
AUCAUCUGCAUCGUCACGUACGUGCUGAACUUCCUUCUUCUCAUUAUCAACUACAAACGACUAGUUUACUUGAACGAGGCCUGGAAGCGGCAGCUGCAACCCAAGCAGGACUGACGCCCG: 0.162 ratio

Set 6 — technique: RNAcompete; molecule type: RNA; matrix: in vitro; tested at: 20 nM; setting: 7-mer, probes averaged, single round; relative to: mean of 7-mers; reading: higher = stronger binding; endpoint: 7-mer Z-score
Target: PABPC1L2, full length, GST fusion (mouse, UniProt A0ABA7IW68)
Target sequence (chain): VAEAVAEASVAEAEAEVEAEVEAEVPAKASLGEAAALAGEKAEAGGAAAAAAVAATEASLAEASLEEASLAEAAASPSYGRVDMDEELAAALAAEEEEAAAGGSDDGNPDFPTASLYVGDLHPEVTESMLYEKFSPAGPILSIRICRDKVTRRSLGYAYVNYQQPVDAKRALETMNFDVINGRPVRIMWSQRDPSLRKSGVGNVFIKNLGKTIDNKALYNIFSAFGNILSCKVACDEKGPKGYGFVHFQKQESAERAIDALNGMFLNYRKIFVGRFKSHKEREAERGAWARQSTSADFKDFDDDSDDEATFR
GCGAAGG: -0.021
UCGAUUA: -0.161
CGUAUGC: -0.302
GGGCCGU: -0.0899
GAGCUUG: -0.213
GGAUUAG: -0.0301
GGUUUAG: -0.253
GUAAGCG: -0.0844

Some of these lines once more (set 4):
CAACCTCG: -0.112
AGAAGCCC: -0.172
CACAGTGC: -0.295
CTATCGTC: -0.044
ACTCTAGA: 0.0599
GGCTGCCA: -0.25
ACATCCAC: 0.0403
GAAGATGA: 0.179
